Results gathered from unrelated publications.
Every numbered part comes from another study and shows a few of its results, in no order. Several values in a cell are separate wells, animals, samples, runs or records.
UniProt P68400, sequence (whole entry, looked up): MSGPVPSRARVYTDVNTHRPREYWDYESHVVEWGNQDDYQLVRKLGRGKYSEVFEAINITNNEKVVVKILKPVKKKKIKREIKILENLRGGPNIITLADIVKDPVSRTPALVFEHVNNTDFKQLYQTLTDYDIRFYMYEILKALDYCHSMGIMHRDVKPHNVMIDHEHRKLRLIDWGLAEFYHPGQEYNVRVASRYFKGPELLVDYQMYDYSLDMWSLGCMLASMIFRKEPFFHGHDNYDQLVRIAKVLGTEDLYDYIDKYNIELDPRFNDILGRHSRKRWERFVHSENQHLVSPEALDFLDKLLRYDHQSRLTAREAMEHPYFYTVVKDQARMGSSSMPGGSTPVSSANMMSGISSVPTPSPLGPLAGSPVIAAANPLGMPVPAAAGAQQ

Sample 1 — organism: Sarcocystis neurona; observed: parasite growth; concentration: 10 µM; time: 96 h; notes: first screen; relative to: untreated; endpoint: log2 fold change
CN1CCN(CC/C=C2/c3ccccc3Sc3ccc(S(=O)(=O)N(C)C)cc32)CC1: -2.87
c1ccc(Cn2ccnc2)cc1: 0.00249
O=c1c(-c2ccccc2)c1-c1ccccc1: -0.61
C[C@H]1CCC[C@H](O)CCCCCc2cc(O)cc(O)c2C(=O)O1: -0.57
Oc1cc(Cl)ccc1Oc1ccc(Cl)cc1Cl: -0.25

Sample 2 — cell line: mouse MPNST tumor cells; technique: high-content nuclear imaging; measured: cell number; concentration: 10 µM; time: 12 h; notes: mean of 2 replicates; relative to: plate mean; reading: higher = more cells; endpoint: nuclei count
C[C@@H]1C[C@@H]([C@H](O)CC2CC(=O)NC(=O)C2)C(=O)[C@@H](C)C1: -3.85 z-score
NCC(CC(=O)O)c1ccc(Cl)cc1 (centres unmarked): -0.191 z-score
C[C@]12CC[C@H](O)C[C@H]1CC[C@@H]1[C@@H]2C[C@@H](O)[C@]2(C)[C@@H](C3=CC(=O)OC3)CC[C@]12O: 0.976 z-score
Nc1ncnc2c1ccn2[C@@H]1O[C@H]([C@H](O)c2ccccc2)[C@@H](O)[C@H]1O: 2.77 z-score
CN(C)CCN(C)CCc1ccc(Cl)c(Cl)c1: 0.84 z-score

Sample 3 — observed: RNA clamping; technique: fluorescence polarization; concentration: concentration not given; added: FAM-labelled poly r(AG)8 RNA; endpoint: fluorescence polarization change
Target: Eukaryotic initiation factor 4A-III (Homo sapiens, UniProt P38919)
UniProt P38919, sequence (whole entry, looked up): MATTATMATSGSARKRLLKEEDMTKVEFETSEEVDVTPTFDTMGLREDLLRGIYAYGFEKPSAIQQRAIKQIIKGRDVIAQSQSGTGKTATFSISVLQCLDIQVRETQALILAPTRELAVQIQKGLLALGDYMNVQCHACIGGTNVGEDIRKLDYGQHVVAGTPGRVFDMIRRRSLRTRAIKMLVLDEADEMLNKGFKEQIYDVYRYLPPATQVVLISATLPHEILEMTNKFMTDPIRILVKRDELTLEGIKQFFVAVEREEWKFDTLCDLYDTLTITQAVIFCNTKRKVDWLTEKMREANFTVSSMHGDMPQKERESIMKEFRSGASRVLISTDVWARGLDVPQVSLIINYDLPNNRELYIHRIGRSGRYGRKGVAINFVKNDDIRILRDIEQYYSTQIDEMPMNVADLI
COCC1=N[C@@]2(O)[C@H](C(=O)N(C)OC)[C@@H](c3ccccc3)[C@]3(c4ccc(OC)cc4)Oc4cc(OC)cc(OC)c4[C@]23N1: 26.4 mP
COCC1=N[C@@]2(O)[C@H](C(=O)OC)[C@@H](c3ccccc3)[C@]3(c4ccc(OC)cc4)Oc4cc(OC)cc(OC)c4[C@]23N1: 21.2 mP and 33.2 mP
COC(=O)Cc1nc2c(c(=O)[nH]1)[C@@H](c1ccccc1)[C@]1(c3ccc(OC)cc3)Oc3cc(OC)cc(OC)c3[C@]21O: 19.3 mP
COc1ccc([C@@]23Oc4cc(OC)cc(OC)c4[C@]2(O)c2nc(-c4cccc(C)c4)[nH]c(=O)c2[C@H]3c2ccccc2)cc1: 12.3 mP
COc1ccc([C@@]23Oc4cc(OC)cc(OC)c4[C@]2(O)c2nc(-c4ccc(F)cc4)[nH]c(=O)c2[C@H]3c2ccccc2)cc1: 5.1 mP
COc1ccc([C@@]23Oc4cc(OC)cc(OC)c4[C@]2(O)c2nc(-c4ccncc4)[nH]c(=O)c2[C@H]3c2ccccc2)cc1: 18.5 mP
CCOc1ccccc1-c1nc2c(c(=O)[nH]1)[C@@H](c1ccccc1)[C@]1(c3ccc(OC)cc3)Oc3cc(OC)cc(OC)c3[C@]21O: 42.7 mP
COc1ccc([C@@]23Oc4cc(OC)cc(OC)c4[C@]2(O)c2nc(-c4ccccc4)n(C)c(=O)c2[C@H]3c2ccccc2)cc1: 17.9 mP
COc1ccc([C@@]23Oc4cc(OC)cc(OC)c4[C@]2(O)c2nc(-c4ccc(N(C)C)cc4)[nH]c(=O)c2[C@H]3c2ccccc2)cc1: 12.2 mP
COc1ccc([C@@]23Oc4cc(OC)cc(OC)c4[C@]2(O)c2nc(-c4ccc(Br)cc4)[nH]c(=O)c2[C@H]3c2ccccc2)cc1: 3.5 mP
COC(=O)[C@@H]1[C@@H](c2ccccc2)[C@]2(c3ccc(OC)cc3)Oc3cc(OC)cc(OC)c3[C@@]23N=C(C2CC2)N[C@@]13O: 27 mP and 70.8 mP
COc1ccc([C@@]23Oc4cc(OC)cc(OC)c4[C@]2(O)[C@H](O)[C@H](C(=O)O)[C@H]3c2ccccc2)cc1: 34.9 mP and 16.2 mP
COc1ccc([C@@]23Oc4cc(OC)cc(OC)c4[C@@]24NC(C)=N[C@@]4(O)[C@H](C(=O)N(C)C)[C@H]3c2ccccc2)cc1: 54.3 mP
CCOC(=O)[C@H]1[C@@H](c2ccccc2)[C@]2(c3ccc(Br)cc3)Nc3cc(OC)cc(OC)c3[C@@]1(O)[C@H]2O: 6.4 mP
CONC(=O)[C@H]1[C@@H](O)[C@@]2(O)c3c(OC)cc(OC)cc3O[C@@]2(c2ccc(OC)cc2)[C@@H]1c1ccccc1: 44.5 mP and 51.8 mP and 35.3 mP
COc1ccc([C@@]23Oc4cc(OC)cc(OC)c4[C@@]24NC(C2CC2)=N[C@@]4(O)[C@H](C(=O)N(C)OC)[C@H]3c2ccccc2)cc1: 39.9 mP
C#CCOc1nc(-c2ccccc2)nc2c1[C@@H](c1ccccc1)[C@]1(c3ccc(OC)cc3)Oc3cc(OC)cc(OC)c3[C@]21OCC#C: 11.5 mP
COc1ccc([C@@]23Oc4cc(OC)cc(OC)c4[C@]2(O)c2nc(-c4cnccn4)[nH]c(=O)c2[C@H]3c2ccccc2)cc1: 22.3 mP

Sample 4 — observed: enzyme activity; action: inhibitor; concentration: 10 µM; endpoint: inhibition
Target: Calcium/calmodulin-dependent protein kinase type II subunit alpha (CAMK2A, Homo sapiens, UniProt Q9UQM7)
UniProt Q9UQM7, sequence (whole entry, looked up): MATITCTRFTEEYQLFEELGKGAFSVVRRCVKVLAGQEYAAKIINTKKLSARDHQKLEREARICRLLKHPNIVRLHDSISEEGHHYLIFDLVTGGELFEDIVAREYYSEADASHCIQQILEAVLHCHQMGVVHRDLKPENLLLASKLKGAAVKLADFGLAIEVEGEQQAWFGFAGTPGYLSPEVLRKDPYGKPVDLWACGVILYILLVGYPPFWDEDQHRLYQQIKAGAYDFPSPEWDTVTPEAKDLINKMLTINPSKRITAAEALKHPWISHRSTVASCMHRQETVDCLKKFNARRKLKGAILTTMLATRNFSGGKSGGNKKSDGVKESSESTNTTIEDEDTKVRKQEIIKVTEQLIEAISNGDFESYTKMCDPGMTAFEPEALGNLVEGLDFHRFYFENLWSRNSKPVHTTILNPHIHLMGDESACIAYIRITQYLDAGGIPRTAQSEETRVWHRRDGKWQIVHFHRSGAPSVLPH
CN1CCc2cc3c(c4c2[C@H]1Cc1ccccc1-4)OCO3: -40%
CC(C)(O)/C=C/C(=O)[C@](C)(O)[C@H]1[C@H](O)C[C@@]2(C)[C@@H]3CC=C4[C@@H](C[C@H](O)C(=O)C4(C)C)[C@]3(C)C(=O)C[C@]12C: 12%
CC(C)=CC[C@@H](OC(=O)CC(C)(C)O)C1=CC(=O)c2c(O)ccc(O)c2C1=O: -1%
CN1Cc2c(ccc3c2OCO3)[C@@H]2[C@H]1c1cc3c(cc1C[C@@H]2O)OCO3: 5%
C1=Cc2cccc3cccc1c23: 37%

Other studies, line by line
CRK2: Cyclin-dependent kinase 2 homolog (CRK2, Plasmodium falciparum, UniProt P61075)
UniProt P61075, sequence (whole entry, looked up): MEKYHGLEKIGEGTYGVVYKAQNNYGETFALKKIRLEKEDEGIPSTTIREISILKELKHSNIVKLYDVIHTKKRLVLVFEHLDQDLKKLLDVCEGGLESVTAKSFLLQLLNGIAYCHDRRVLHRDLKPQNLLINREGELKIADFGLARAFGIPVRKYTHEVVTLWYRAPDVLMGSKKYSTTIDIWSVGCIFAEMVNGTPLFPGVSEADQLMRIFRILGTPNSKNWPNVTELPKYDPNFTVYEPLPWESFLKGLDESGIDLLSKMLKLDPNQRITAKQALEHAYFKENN
CDPK1: Calcium-dependent protein kinase 1 (CDPK1, Plasmodium falciparum, UniProt P62344)
UniProt P62344, sequence (whole entry, looked up): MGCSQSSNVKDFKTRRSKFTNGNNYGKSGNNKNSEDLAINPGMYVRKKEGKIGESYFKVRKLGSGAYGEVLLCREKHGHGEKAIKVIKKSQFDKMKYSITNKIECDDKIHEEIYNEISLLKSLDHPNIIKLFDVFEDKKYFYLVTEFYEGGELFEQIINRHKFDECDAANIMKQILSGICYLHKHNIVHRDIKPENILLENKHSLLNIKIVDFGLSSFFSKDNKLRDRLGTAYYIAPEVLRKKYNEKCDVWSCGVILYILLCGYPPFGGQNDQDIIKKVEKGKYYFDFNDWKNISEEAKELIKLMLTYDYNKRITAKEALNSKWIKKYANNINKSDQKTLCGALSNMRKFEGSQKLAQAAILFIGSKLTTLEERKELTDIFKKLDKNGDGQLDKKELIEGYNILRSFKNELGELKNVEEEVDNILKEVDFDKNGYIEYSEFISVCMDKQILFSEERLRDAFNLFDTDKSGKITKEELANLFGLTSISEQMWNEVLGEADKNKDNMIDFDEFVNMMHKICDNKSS
NS(=O)(=O)c1cc(NC(=O)Cc2ccccc2)ccc1Oc1cccc(Cl)c1  remaining binding (CRK2; cell-free assay, competition with immobilised ligand; 1 µM): 100%
CN[C@@H]1C[C@H]2O[C@@](C)([C@@H]1OC)n1c3ccccc3c3c4c(c5c6ccccc6n2c5c31)C(=O)NC4  activity vs control (Casein kinase II subunit alpha (CSNK2A1, Homo sapiens, UniProt P68400); enzyme activity, inhibitor; 0.5 µM): 87.9%
Cc1nc(Cc2cccc(C(F)(F)F)c2)sc1-c1ccc(C(N)=O)nc1  remaining binding (CDPK1; cell-free assay, competition with immobilised ligand; 1 µM): 100%
C[C@@H](c1cccc(C#N)c1)n1cc(Cl)cc(C(N)=O)c1=N  remaining binding (CDPK1; cell-free assay, competition with immobilised ligand; 1 µM): 78%
Cc1nccc(COC(=O)N2C[C@@H]3[C@@H](CNC(=O)c4ccc5[nH]nnc5c4)[C@@H]3C2)n1  remaining binding (CRK2; cell-free assay, competition with immobilised ligand; 1 µM): 85%

Excerpt of the above (sample 4):
CN1CCc2cc3c(c4c2[C@H]1Cc1ccccc1-4)OCO3: -40%
CC(C)(O)/C=C/C(=O)[C@](C)(O)[C@H]1[C@H](O)C[C@@]2(C)[C@@H]3CC=C4[C@@H](C[C@H](O)C(=O)C4(C)C)[C@]3(C)C(=O)C[C@]12C: 12%
CC(C)=CC[C@@H](OC(=O)CC(C)(C)O)C1=CC(=O)c2c(O)ccc(O)c2C1=O: -1%
CN1Cc2c(ccc3c2OCO3)[C@@H]2[C@H]1c1cc3c(cc1C[C@@H]2O)OCO3: 5%
